Measurements collected from several papers.
Numbers after ± are the reported error.

CCCOc1ccc(NC(=O)CN2CCN(C)CC2)cc1-c1nc(CC)c(CC)c(=O)[nH]1 — Cmax (human, fasting, plasma; oral, 10 mg, with: placebo): 56.8 ± 15.1 ng/mL
CN(CC#N)C(=O)C[C@H](Nc1nc2ccccc2[nH]1)c1cccc(C(F)(F)F)c1 — Cmax (human; intravenous infusion, 5 mg/kg, 1 mg/mL formulation): 8010 ± 1480 ng/mL
Cc1cc(OCCOCCC(F)(F)P(=O)(O)O)ccc1CCc1cnc2c(N)nc3cc(CCC(=O)O)ccc3c2c1 — Cmax (human, serum; intratumoral, 600 µg every 2 weeks, cycle 1 day 1): 2.77 ng/mL
Cc1cc(Nc2ccc(S(F)(F)(F)(F)F)cc2)n2nc(C(C)(F)F)nc2n1 — Cmax (LC-MS/MS; human vivax malaria patients, plasma; oral, 600 mg, mean): 8440 ng/mL
CC[C@H](C)[C@H](NC(=O)[C@H](Cc1ccccc1)NC(=O)[C@H](CCC(=O)O)NC(=O)[C@H](CCCCNC(=O)COCCOCCNC(=O)COCCOCCNC(=O)CC[C@H](NC(=O)CCCCCCCCCCCCCCCCC(=O)O)C(=O)O)NC(=O)[C@H](C)NC(=O)[C@H](C)NC(=O)[C@H](CCC(N)=O)NC(=O)CNC(=O)[C@H](CCC(=O)O)NC(=O)[C@H](CC(C)C)NC(=O)[C@H](Cc1ccc(O)cc1)NC(=O)[C@H](CO)NC(=O)[C@H](CO)NC(=O)[C@@H](NC(=O)[C@H](CC(=O)O)NC(=O)[C@H](CO)NC(=O)[C@@H](NC(=O)[C@H](Cc1ccccc1)NC(=O)[C@@H](NC(=O)CNC(=O)[C@H](CCC(=O)O)NC(=O)C(C)(C)NC(=O)[C@@H](N)Cc1cnc[nH]1)[C@@H](C)O)[C@@H](C)O)C(C)C)C(=O)N[C@@H](C)C(=O)N[C@@H](Cc1c[nH]c2ccccc12)C(=O)N[C@@H](CC(C)C)C(=O)N[C@H](C(=O)N[C@@H](CCCNC(=N)N)C(=O)NCC(=O)N[C@@H](CCCNC(=N)N)C(=O)NCC(=O)O)C(C)C — Cmax (human, plasma; 7 mg, model-estimated mean): 9.54 nM
CCNCCCNC/C=C\CNCCCNCC — Cmax (LC-MS/MS; human cancer patients, plasma; intravenous infusion 60 min, 200 mg, median, cycle 1): 1550 ng/mL
CCCS(=O)(=O)N[C@H]1C[C@@H](N(C)c2ncnc3[nH]ccc23)C1 — Cmax (human, plasma, total; oral, 200 mg single dose): 756 ng/mL
CC(C)CCC[C@@H](C)[C@H]1CC[C@H]2[C@@H]3C(O)CC4=CC(=O)CC[C@]4(C)[C@H]3CC[C@]12C (stereo partly drawn) — Cmax (human, plasma; oral, dose not given; reference: untreated): 118 ± 14 nM
O=C(O)c1ccccc1O — Cmax (humans, both sexes, plasma; oral, 650 mg aspirin, with alcohol, geometric mean): 30100 ng/mL
NC1(C(=O)N[C@@H](CCO)c2ccc(Cl)cc2)CCN(c2ncnc3[nH]ccc23)CC1 — Cmax (human, plasma; 480 mg twice daily, day 4, 4 days on, 3 days off): 1430 ng/mL
Cc1nc(-c2ccc(OCC(C)C)c(C#N)c2)sc1C(=O)O — Cmax (human, plasma; oral, 20 mg once daily, with: verinurad 5 mg): 538 ng/mL
COc1ccc2[nH]c([S@+]([O-])Cc3ncc(CO)c(OC)c3C)nc2c1 — Cmax (human, dried plasma spots; 5 mg racemic omeprazole, with: fluvoxamine and voriconazole): 38.8 nM
N[C@@H]1c2cccnc2[C@H](OC(=O)N2CCC(n3c(=O)[nH]c4ncccc43)CC2)CC[C@H]1c1cccc(F)c1F — Cmax (human, plasma; oral, dose not given, single dose, mean, with: fluconazole): 994 ng/mL
C[C@H](CCC(=O)NCC(=O)O)[C@H]1CC[C@H]2[C@@H]3CC[C@@H]4C[C@H](O)CC[C@]4(C)[C@H]3C[C@H](O)[C@]12C — Cmax (human, plasma; oral, dose not given; reference: untreated): 840 ± 193 nM
CC(=O)O[C@@]12CO[C@@H]1C[C@H](O)[C@@]1(C)C(=O)[C@H](O)C3=C(C)[C@@H](OC(=O)[C@H](O)[C@@H](NC(=O)OC(C)(C)C)c4ccccc4)C[C@@](O)([C@@H](OC(=O)c4ccccc4)[C@H]21)C3(C)C — Cmax (LC-MS; human, plasma; intravenous, 70 mg/m^2, infusion over 1 h, cycle 1, with another drug): 2500 nM

For quick reference, copied from above:
NC1(C(=O)N[C@@H](CCO)c2ccc(Cl)cc2)CCN(c2ncnc3[nH]ccc23)CC1 — Cmax (human, plasma; 480 mg twice daily, day 4, 4 days on, 3 days off): 1430 ng/mL
O=C(O)c1ccccc1O — Cmax (humans, both sexes, plasma; oral, 650 mg aspirin, with alcohol, geometric mean): 30100 ng/mL
